Results from different studies.
Numbered parts are unrelated; each lists some results of a single study.
UniProt Q14653, sequence (whole entry, unmodified, looked up): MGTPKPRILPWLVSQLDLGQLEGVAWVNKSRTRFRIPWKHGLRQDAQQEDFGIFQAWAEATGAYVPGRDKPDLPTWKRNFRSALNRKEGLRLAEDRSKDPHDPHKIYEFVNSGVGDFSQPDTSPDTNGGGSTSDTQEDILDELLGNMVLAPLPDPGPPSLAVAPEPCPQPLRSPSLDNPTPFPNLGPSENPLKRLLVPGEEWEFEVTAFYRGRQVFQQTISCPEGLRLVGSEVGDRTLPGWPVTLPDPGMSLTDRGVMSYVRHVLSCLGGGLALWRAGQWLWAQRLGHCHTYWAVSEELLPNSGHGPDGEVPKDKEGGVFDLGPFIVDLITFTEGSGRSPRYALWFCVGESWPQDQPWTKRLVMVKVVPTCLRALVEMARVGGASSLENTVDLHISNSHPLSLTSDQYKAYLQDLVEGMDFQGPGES

Sample 1 — technique: aptamer microarray, sandwich; form: DNA with 2'F-ANA; sample: in vitro; tested at: 200 nM; together with: Cy3 exosite-II aptamer, 400 nM; reading: higher = stronger binding
Target: Prothrombin, mature alpha-thrombin (F2, Homo sapiens, UniProt P00734)
Setting: whole 15-mer aptamer, many near background
| Strand | mean fluorescence intensity [a.u.] |
| --- | --- |
| GGTTGGTGTGGTTGG (2'F-ANA at 4 6 11) | 220 |
| GGTTGGTGTGGTTGG (2'F-ANA at 1 3 4 6 8 10 11 12 13 15) | 63.4 |
| GGTTGGTGTGGTTGG (2'F-ANA at 1 2 4 5 9 11 14 15) | 47.1 |
| GGTTGGTGTGGTTGG (2'F-ANA at 3 6 7 8 10 12 14 15) | 393 |

Sample 2 — technique: universal PBM; form: double-stranded DNA, one strand shown; sample: in vitro; tested at: 600 nM; reading: higher = stronger binding
Target: Sal-like protein 4, full length isoform A (SALL4, Homo sapiens, UniProt Q9UJQ4, residues 1-1053)
UniProt Q9UJQ4, sequence (whole entry, looked up): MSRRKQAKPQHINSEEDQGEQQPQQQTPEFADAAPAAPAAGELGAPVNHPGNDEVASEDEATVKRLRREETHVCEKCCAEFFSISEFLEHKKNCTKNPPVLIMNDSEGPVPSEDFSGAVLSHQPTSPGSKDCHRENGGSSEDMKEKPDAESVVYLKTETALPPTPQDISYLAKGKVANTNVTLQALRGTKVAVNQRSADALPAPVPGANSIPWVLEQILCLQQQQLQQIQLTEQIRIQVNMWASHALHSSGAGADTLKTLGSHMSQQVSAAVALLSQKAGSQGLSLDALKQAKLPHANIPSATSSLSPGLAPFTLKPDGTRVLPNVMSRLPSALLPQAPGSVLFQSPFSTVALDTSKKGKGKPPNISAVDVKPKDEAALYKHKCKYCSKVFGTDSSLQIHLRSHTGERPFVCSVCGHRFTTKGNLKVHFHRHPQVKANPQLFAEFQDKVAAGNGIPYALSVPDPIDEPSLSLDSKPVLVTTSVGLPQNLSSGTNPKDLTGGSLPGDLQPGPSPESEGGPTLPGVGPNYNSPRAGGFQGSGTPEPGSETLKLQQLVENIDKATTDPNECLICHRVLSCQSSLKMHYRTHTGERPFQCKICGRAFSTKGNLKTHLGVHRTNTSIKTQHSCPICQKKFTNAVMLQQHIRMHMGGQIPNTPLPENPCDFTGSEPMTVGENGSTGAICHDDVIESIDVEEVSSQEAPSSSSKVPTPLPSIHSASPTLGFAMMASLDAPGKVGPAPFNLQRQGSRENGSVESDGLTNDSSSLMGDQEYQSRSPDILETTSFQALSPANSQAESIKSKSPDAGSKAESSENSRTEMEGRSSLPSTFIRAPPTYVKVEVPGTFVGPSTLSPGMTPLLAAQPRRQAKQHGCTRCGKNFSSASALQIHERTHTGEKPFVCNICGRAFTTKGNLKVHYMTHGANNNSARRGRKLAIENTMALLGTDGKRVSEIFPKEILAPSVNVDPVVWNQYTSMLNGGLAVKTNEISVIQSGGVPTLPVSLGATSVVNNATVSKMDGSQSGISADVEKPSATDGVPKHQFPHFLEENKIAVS
Setting: 8-mer, flanks averaged, mean of replicates
| Strand | E-score |
| --- | --- |
| AGGTATGG | -0.0861 |
| GTCGCGCA | -0.226 |
| AGTCGACT | 0.197 |
| GTAGAAGA | -0.0893 |
| CAACCCAC | -0.163 |

Single results of other studies
IRF7 S101K/S471D/S472D/S475D/S476D/S477D/S483D/S484D/S487D full length, phosphomimetic: Interferon regulatory factor 7, full length, phosphomimetic (IRF7, Homo sapiens, UniProt Q92985, residues 1-503, S101K/S471D/S472D/S475D/S476D/S477D/S483D/S484D/S487D)
UniProt Q92985, sequence (whole entry, unmodified, looked up): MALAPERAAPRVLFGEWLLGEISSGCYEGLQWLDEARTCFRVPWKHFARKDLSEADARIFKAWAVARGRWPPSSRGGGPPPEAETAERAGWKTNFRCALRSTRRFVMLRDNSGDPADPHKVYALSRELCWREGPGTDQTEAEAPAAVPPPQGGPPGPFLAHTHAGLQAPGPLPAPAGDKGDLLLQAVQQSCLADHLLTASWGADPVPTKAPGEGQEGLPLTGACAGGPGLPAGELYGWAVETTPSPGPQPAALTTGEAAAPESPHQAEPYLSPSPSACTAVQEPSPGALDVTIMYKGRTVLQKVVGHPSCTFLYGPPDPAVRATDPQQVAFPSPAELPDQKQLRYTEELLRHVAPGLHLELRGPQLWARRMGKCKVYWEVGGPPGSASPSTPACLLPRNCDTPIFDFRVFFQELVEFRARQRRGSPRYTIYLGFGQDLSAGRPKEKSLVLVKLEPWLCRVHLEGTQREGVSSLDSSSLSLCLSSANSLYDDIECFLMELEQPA
| Substance | target | assay | test system | setting | scale | measurement | result |
| --- | --- | --- | --- | --- | --- | --- | --- |
| GCCTAGCACAACGAACTGAGTATCGAGACGTGCTAGGTCTTGATTCGCTTGACGCTGCTG | Interferon regulatory factor 5, full length, phosphomimetic (IRF5, Homo sapiens, UniProt Q13568-2, residues 1-514, S451D/S453D/S456D/S462D) | protein-binding microarray | double-stranded DNA, one strand shown, in vitro | 940 nM top, 60-bp whole probe, together with: salmon DNA 0.4 mg/ml | reference: random background probes, higher = stronger binding | fitted relative affinity | 1.72 z-score |
| PhoQ, residues 284 288 289 292 302 303 SMMNNA | PhoP, residues 12 14 15 18 19 LHTVM (Escherichia coli, UniProt P23836) | Sort-seq, refers to: YFP reporter | E. coli | PhoQ-PhoP variant library, together with: 10 µM Mg2+ | reference: high Mg2+ state, higher = stronger signaling | fold induction | 11.7 |
| GCCTAGCACGACGATATCGGGACTCGAGACGTGCTAGTCTTGATTCGCTTGACGCTGCTG | Interferon regulatory factor 3, full length, phosphomimetic (IRF3, Homo sapiens, UniProt Q14653, residues 1-427, S386D/S396D/S398D/S402D/T404D/S405D) | protein-binding microarray | double-stranded DNA, one strand shown, in vitro | 2540 nM top, 60-bp whole probe, together with: salmon DNA 0.4 mg/ml | reference: random background probes, higher = stronger binding | fitted relative affinity | 0.115 z-score |
| GCCTAGCACTTAGAACTGAGTCTCGATTCGTGCTAGGTCTTGATTCGCTTGACGCTGCTG | IRF7 S101K/S471D/S472D/S475D/S476D/S477D/S483D/S484D/S487D full length, phosphomimetic | protein-binding microarray | double-stranded DNA, one strand shown, in vitro | 250 nM, 60-bp whole probe, together with: salmon DNA 0.4 mg/ml | reference: random background probes, higher = stronger binding | log fluorescence | 4.19 z-score |
| GCCTAGCACTTAGGTCTCCTTATCTTTTAGTGCTAGGTCTTGATTCGCTTGACGCTGCTG | IRF7 S101K/S471D/S472D/S475D/S476D/S477D/S483D/S484D/S487D full length, phosphomimetic | protein-binding microarray | double-stranded DNA, one strand shown, in vitro | 250 nM, 60-bp whole probe, together with: salmon DNA 0.4 mg/ml | reference: random background probes, higher = stronger binding | log fluorescence | 0.156 z-score |

For quick reference, copied from above (sample 1):
| Strand | mean fluorescence intensity [a.u.] |
| --- | --- |
| GGTTGGTGTGGTTGG (2'F-ANA at 1 2 4 5 9 11 14 15) | 47.1 |
| GGTTGGTGTGGTTGG (2'F-ANA at 3 6 7 8 10 12 14 15) | 393 |
